Experimental data of several laboratories.
± marks the error that the study gave.

| SMILES | host | matrix | route | dose | notes | added | half-life [h] |
| --- | --- | --- | --- | --- | --- | --- | --- |
| O=C(NCCN1C(=O)C=CC1=O)[O][Pt-2]12([O]C(=O)NCCN3C(=O)C=CC3=O)([NH2+][C@@H]3CCCC[C@H]3[NH2+]1)[O]C(=O)C(=O)[O]2 | BALB/c mice | serum | intravenous | equimolar to 9 mg/kg oxaliplatin | – | – | 55.7 |
| CC=C1C(OC2OC(CO)C(O)C(O)C2O)OC=C(C(=O)OC)C1CC(=O)OCC1OC(OCCc2ccc(O)cc2)C(O)C(O)C1O (stereo not drawn) | pseudo-germfree mice | plasma | oral | 109.2 mg/kg | – | – | 1.38 |
| CC(=O)N1CCC(NC(=O)Nc2ccc(OC(F)(F)F)cc2)CC1 | C57BL/6J mice, male, sEH knockout | whole blood | subcutaneous | 1 mg/kg | – | TPPU 0.3 mg/kg | 8.35 |
| Cc1cccc(O[C@H]2CCC[C@@H](C(C)CNCc3ccncc3)C2)c1 (relative stereo) | female C57BL/6J mice | plasma | intravenous | 3 mg/kg | – | – | 4.21 |
| CC(C)(C)ONc1nc(Nc2ccnc(C(F)(F)F)c2)nc(-c2cccc(C(F)(F)F)n2)n1 | female Balb/cA nude mice xenograft | plasma | oral | 54.14 mg/kg | – | – | 9.4 |
| CCCCCCc1ccc(Oc2ccccc2C#N)c(O)c1 | CD-1 mice | plasma | subcutaneous | 100 mg/kg | – | – | 3.8 ± 2.4 |
| COc1cccc(OCCN2CCC[C@H](CN3CCc4cc(OC)c(OC)cc4CC3=O)C2)c1 | female C57BL/6 mice | – | intraperitoneal | 20 mg/kg | – | – | 0.65 |
| CCN(CC)CC#CCNc1ccnc2cc(Cl)ccc12 | male CD1 mice | plasma | oral | 20 mg/kg | – | – | 2.1 |
| O=[N][Fe]1([N]=O)[S](CCO)[Fe]([N]=O)([N]=O)[S]1CCO | C57BL/6JNarl mice | stomach | oral | 13.25 mg/kg | – | – | 2.7 ± 0.6 |
| CN1/C(=C/C=C/c2cc(-c3ccccc3)cc(-c3ccccc3)[o+]2)C(C)(C)c2ccccc21 | male CD1 mice | plasma | intravenous | 1 mg/kg | – | – | 0.378 |
| CCNCC#CCNc1ccnc2cc(Cl)ccc12 | male CD1 mice | plasma | intravenous | 10 mg/kg of DAQ | compound as metabolite | – | 4.8 |
| COc1cc2c(cc1OC)CC(=O)N(C[C@H]1CCCN(CCOc3ccc(F)cc3)C1)CC2 | male C57BL/6 mice | – | intraperitoneal | 20 mg/kg | – | – | 0.58 |

A few entries again:
| SMILES | host | matrix | route | dose | notes | added | half-life [h] |
| --- | --- | --- | --- | --- | --- | --- | --- |
| O=[N][Fe]1([N]=O)[S](CCO)[Fe]([N]=O)([N]=O)[S]1CCO | C57BL/6JNarl mice | stomach | oral | 13.25 mg/kg | – | – | 2.7 ± 0.6 |
| CCNCC#CCNc1ccnc2cc(Cl)ccc12 | male CD1 mice | plasma | intravenous | 10 mg/kg of DAQ | compound as metabolite | – | 4.8 |
